Experimental data collected from several papers.
Every numbered part comes from another study and shows a few of its results, in no order. Changes are numbered by the printed parent chain.

Series 1 — technique: protein-binding microarray; molecule type: double-stranded DNA, one strand shown; sample: in vitro; concentration: 250 nM; notes: 60-bp whole probe; together with: salmon DNA 0.4 mg/ml; reference: random background probes; direction: higher = stronger binding; constant ends, left off below: GCCTAGCAC … GTCTTGATTCGCTTGACGCTGCTG
Target: Interferon regulatory factor 7, full length, phosphomimetic (IRF7, Homo sapiens, UniProt Q92985, residues 1-503, S101K/S471D/S472D/S475D/S476D/S477D/S483D/S484D/S487D)
Chain of UniProt Q92985 (whole entry, unmodified, looked up): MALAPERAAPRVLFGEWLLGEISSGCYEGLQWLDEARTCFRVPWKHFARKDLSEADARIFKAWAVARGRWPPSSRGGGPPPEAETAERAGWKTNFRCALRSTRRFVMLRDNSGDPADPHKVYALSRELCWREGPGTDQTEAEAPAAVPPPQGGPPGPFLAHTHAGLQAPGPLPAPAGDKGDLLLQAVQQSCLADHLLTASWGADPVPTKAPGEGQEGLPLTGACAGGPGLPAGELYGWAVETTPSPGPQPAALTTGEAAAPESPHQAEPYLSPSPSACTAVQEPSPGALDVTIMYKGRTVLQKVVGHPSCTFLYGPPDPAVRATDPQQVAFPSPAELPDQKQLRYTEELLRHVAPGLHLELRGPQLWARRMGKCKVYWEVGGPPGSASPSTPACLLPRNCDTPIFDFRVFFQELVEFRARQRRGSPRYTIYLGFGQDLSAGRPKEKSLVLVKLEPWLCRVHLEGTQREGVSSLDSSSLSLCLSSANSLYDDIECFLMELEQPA
Sequence | log fluorescence [z-score]
GCCACCGGTCTCCATGGGTCGTGCTAG | -0.379
TTTGGTTTCCTTCTCCTTTAGTGCTAG | 3.23
TCAGTTTGCCTCCTTCAGACTGTGCTA | 0.321
GACGATTCCTGTTTCGAGACGTGCTAG | 2.77
GACGGTCACGGACTGGGGACGTGCTAG | -0.618
TTAGCACTGGGTTTCGGTTAGTGCTAG | 6.7
TTAGGACTACTTTTCCTTTAGTGCTAG | 1.3
GACGGTATCGCTTTCGGGACGTGCTAG | 2.97
GCCGGTCTCGGTTTCGGGACGTGCTAG | 8.26
GACGATAGCAGACTGGAGACGTGCTAG | -0.678
AAAAAAATCATTTTCTCTGTGTGCTAG | 0.168
GACAGTCTCCTACTGCTGACGTGCTAG | -0.261
GACAGTTTCCTTTTCCTGACGTGCTAG | 6.9
TTTTTTTTCATCATTGCCTGGTGCTAG | 0.792
TTAGATTTAGGGTATCGATTAGTGCTA | 0.445
GACTGTATCGGTCTCGGGACGTGCTAG | 0.0943
TCAACTCTGGAGGTTGAGACTGTGCTA | -0.719
TTAGATCTCAGTTTCTATTAGTGCTAG | 3.13
CCCACTTTCACTTCTCCCTTGTGCTAG | 2.92
TTGAACTTCGGCCTCTAGGTGTGCTAG | -0.711
TTAGGTTTCTTACTGCTTTAGTGCTAG | 0.747
GACGGCCTCGGTTTCGGGACGTGCTAG | 4.17
GACGATATCCGTTTCGAGACGTGCTAG | 1.78
GACGGTATCGGGACTGGGGATGTGCTA | -0.321

Series 2 — technique: RNAcompete; molecule type: RNA; sample: in vitro; concentration: 20 nM; notes: 7-mer, probes averaged, single round; reference: mean of 7-mers; direction: higher = stronger binding
Target: PABPC1L2, full length, GST fusion (mouse, UniProt A0ABA7IW68)
Target sequence (chain): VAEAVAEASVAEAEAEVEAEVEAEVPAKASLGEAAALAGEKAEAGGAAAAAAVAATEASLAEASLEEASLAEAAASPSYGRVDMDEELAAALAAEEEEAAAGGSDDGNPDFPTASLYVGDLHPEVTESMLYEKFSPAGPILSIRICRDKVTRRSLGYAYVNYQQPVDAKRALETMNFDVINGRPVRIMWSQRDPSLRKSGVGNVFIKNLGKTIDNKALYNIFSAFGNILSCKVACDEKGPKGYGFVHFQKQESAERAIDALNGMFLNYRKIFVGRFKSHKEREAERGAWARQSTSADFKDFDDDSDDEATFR
Sequence | 7-mer Z-score
GCCUCCG | -0.306
GUCUUUG | -0.369
AACGAAU | 0.216
GCGUGUA | -0.124
CGAAAGA | 0.369
UCAGUCA | -0.251
GCCGCGA | -0.151
CGCUAAU | -0.246
UUGUGCC | -0.354
GUUCCCA | -0.213
UCUACGA | -0.106
CUUUCAG | -0.376
GUUAUCA | -0.224
GUAUGUG | -0.195
AUCGGGU | -0.0319
GAAUUGC | -0.186
CCAUCGU | -0.373
GUAGGCG | -0.0192
UGAGACC | 0.017
GCGGGGC | 0.157
AUCACGA | -0.012
CCUCCUC | -0.405
UAUAAGG | 0.173
GCAGGCA | 0.314
GACCGAC | 0.0424

Series 3 — technique: protein binding microarray; molecule type: double-stranded DNA, one strand shown; sample: in vitro; concentration: not given; reference: not given; direction: higher = stronger binding
Target: Histone acetyltransferase KAT6A, winged helix 1, GST fusion (KAT6A, Homo sapiens, UniProt Q92794, residues 1-85)
Notes: 8-mer, flanks averaged, mean of 2 arrays, mostly near background
Target sequence (chain): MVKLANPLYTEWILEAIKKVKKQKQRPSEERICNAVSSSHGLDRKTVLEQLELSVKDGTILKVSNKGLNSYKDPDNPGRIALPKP
Sequence | E-score
ATCGTAAT | -0.00237
ACTTGTCT | -0.252
CAAGTGTG | -0.124
AATTTTAT | 0.0418
CGTCTGTC | 0.117
ACCAACTA | -0.0322
CCCAGCAG | -0.245
ACGCTCTC | 0.157
CCGCGGAA | 0.37
AGCGCCCC | 0.157
AAAATGCT | -0.228
ATTCCGCC | 0.199
ACGGATAT | 0.0792
CGCCTTCC | 0.145
GGATGCTA | -0.0229
GCGTCAGC | 0.292
GCTAGGTA | -0.0287
CTACTGGA | -0.16
GCCATGCA | -0.151

Series 4 — technique: universal PBM; molecule type: double-stranded DNA, one strand shown; sample: in vitro; concentration: 600 nM; direction: higher = stronger binding
Target: Sal-like protein 4, full length isoform A (SALL4, Homo sapiens, UniProt Q9UJQ4, residues 1-1053)
Chain of UniProt Q9UJQ4 (whole entry, looked up): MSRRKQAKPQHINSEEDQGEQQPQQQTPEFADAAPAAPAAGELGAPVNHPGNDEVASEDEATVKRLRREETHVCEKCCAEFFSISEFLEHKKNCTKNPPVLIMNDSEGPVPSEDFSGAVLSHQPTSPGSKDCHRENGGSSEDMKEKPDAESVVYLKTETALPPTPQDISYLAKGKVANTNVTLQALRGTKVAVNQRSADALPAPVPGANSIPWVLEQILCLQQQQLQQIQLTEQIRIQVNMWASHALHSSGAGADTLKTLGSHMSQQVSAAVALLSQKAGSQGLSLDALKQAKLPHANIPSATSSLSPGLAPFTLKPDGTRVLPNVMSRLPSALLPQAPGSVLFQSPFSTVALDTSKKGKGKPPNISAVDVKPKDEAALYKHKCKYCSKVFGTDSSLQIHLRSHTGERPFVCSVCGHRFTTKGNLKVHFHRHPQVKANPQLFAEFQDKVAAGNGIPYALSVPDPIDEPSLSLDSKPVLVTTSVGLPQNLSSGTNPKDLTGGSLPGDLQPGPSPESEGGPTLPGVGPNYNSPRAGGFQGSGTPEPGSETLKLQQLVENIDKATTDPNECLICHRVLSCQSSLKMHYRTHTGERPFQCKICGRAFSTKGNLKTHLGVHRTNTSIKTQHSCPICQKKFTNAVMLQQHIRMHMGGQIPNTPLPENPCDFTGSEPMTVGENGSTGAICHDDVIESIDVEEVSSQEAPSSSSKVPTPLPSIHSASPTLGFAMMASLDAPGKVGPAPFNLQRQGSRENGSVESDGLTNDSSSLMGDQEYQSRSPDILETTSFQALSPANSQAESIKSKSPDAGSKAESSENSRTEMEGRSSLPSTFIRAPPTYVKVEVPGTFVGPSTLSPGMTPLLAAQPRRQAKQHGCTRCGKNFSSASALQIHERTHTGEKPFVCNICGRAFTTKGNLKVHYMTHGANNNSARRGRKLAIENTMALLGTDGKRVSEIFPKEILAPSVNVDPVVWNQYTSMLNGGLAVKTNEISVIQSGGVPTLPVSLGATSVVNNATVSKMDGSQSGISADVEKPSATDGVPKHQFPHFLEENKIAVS
Notes: 8-mer, flanks averaged, mean of replicates
Sequence | E-score
GGAGAAAC | -0.0988
CCGCATCC | -0.315
AACGGCAG | -0.266
CTGAGTAC | -0.157
AACAATCT | 0.198
GCGATCAA | 0.00017
ATTTCTCG | 0.218
ACACAATA | 0.269
AGGCCACA | -0.199
CTGGAACA | 0.0734
GAGGTCGA | -0.108
ATCTTTTC | 0.147
AATTTAGG | 0.203
AGGCTGTG | -0.134
AACAATGG | 0.0417
ATGAACCG | -0.0669
CCCGATCC | -0.372

Series 5 — technique: DHFR PCA, deep sequencing; sample: yeast; together with: (+)-ABA 710 µM; reference: wild-type fitted maximum; direction: higher = stronger binding
Target: ABI1, truncated, D143A, DHFR fusion (Arabidopsis thaliana)
Notes: methotrexate growth selection, single substitutions
Starting sequence: PYL1, truncated, DHFR fusion (Arabidopsis thaliana); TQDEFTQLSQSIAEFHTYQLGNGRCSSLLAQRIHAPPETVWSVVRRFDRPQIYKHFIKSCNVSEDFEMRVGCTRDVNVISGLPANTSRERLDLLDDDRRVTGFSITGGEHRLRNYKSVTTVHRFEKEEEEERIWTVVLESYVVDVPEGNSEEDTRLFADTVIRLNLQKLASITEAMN
Change | relative binding score
V78L | 102%
K168F | 77.4%
T6V | 108%
R163T | 95.6%
L112W | 4.3%
A84K | 5.1%
F47V | 6.53%
S171D | 105%
S140F | 17.7%
E89Y | -4.45%
A175Y | 93.7%
Q167A | 103%
R32N | 94.6%
G107T | 86.1%
A170V | 81.8%

Repeated from above (series 1):
Sequence | log fluorescence [z-score]
TCAGTTTGCCTCCTTCAGACTGTGCTA | 0.321
TTGAACTTCGGCCTCTAGGTGTGCTAG | -0.711
GACGATATCCGTTTCGAGACGTGCTAG | 1.78
GACGGCCTCGGTTTCGGGACGTGCTAG | 4.17
TTAGATCTCAGTTTCTATTAGTGCTAG | 3.13
GACTGTATCGGTCTCGGGACGTGCTAG | 0.0943
GACGATAGCAGACTGGAGACGTGCTAG | -0.678
CCCACTTTCACTTCTCCCTTGTGCTAG | 2.92
GACGGTATCGGGACTGGGGATGTGCTA | -0.321
GACGGTCACGGACTGGGGACGTGCTAG | -0.618
